Assay results of several laboratories.
Numbered parts are unrelated; each lists some results of a single study. Positions count from the first letter of the parent shown.

Sample 1
Target: RNA binding protein fox-1 homolog 2, RRM domain, GST-SBP tag (RBFOX2, Homo sapiens, UniProt O43251-10, residues 100-194)
Method: RNA Bind-n-Seq
Form: RNA
Sample: in vitro
Concentration: 365 nM
Notes: natural RNA segment, single round, ends assumed
Relative to: no-protein control
Direction: higher = stronger binding
Shared flanks, not repeated: GGGAGUUCUACAGUCCGACGAUC … UGGAAUUCUCGGGUGCCAA
Residues (chain): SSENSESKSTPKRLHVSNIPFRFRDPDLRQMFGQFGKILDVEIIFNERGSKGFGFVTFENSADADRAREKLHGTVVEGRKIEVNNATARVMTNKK
Sequence	RBNS enrichment (R)
UCAAAGGACUGUUACUUUAUUAUUGUAUUCAACACUCAUUGUGUGUAUUACCACAAAUACUACCGACUCCAUACCAACACUUUUUUUUUUCUGGCAACAUUUAAUGAUCC	0.576
GUGUGGUUCAUGCAUUGUCUUUGAUAUCCUAGACGGAGCUCAGCUUAGAACUUUCCAAGCGCCAGUGCACAGCGUUCUAGGGAAUGGUGCUCCUUGGCUGGGUGAGCUGC	0.568
CGCGUGUGUGGACAGUCUUAUCUUCCAGCAUGAUAGGAUUUGACCAUUUUGGUGUAAACAUUUGUGUUUUAUAAGAUUUACCUUGUUUUUAUUUUUCUACUUUGAAUUGU	4.56
CAUCCAAGGAGAGGGCCAGGAAAACAUCCACCAUCAAAUGGUUUUCCAGCUCCCUCAUCUCUUCAAAAUUGAGUUCUUGGGAGAACAAAAGGUAUGUAUCCUGCAGUAGU	0.287
CCUUCUGAGCUGUGGAGAUCACACCAUCCUGUCGCCCUGCAAAUAAUUGUGGAUCAUUUACCUUGAGGCUGCAGAGUGGGUUCCAGGACUCUUACUUCACUGUGGAGGGA	0.219
CCCCAACAUUAUAUACUCUGCUGCUUUUGUCUGGAAAACUCUACAGUGUUUGUGGGAUAUCCCCAAAGGAAAGCUGUGUUCUAAUUUUAUCAUUUCCAUCUGUCUGGUUA	0.474
UUUAAGGAGCCUCAAGUGAAAAAAACAAAAACAAAACAAAAAACCCAGGGCCACUGGGGGAAUGUUUUAUGAAAUCAUGUAGAGUGCUGUAGUUUUGAAGUCAUCCGUUU	0.367
UUCUCAGAUGGGAUGACUGCGGGUCAGUGCACCGAAGAGGCGGGCGCAGGCGCUGUCUGGCUCAGCUGCCCCCUUGGGGUGGGCAGGGAGGACCAGACUGCUUGGGUGAU	0.326

Sample 2
Target: CCNA1, cyclin fold, Cln2 fusion (human)
Method: yeast growth competition, sequencing
Sample: yeast
Notes: weak parent motif
Relative to: not given
Direction: higher = stronger binding
Starting sequence: ANKRD17 docking peptide (human); PSVRRQLFVTVVK; partner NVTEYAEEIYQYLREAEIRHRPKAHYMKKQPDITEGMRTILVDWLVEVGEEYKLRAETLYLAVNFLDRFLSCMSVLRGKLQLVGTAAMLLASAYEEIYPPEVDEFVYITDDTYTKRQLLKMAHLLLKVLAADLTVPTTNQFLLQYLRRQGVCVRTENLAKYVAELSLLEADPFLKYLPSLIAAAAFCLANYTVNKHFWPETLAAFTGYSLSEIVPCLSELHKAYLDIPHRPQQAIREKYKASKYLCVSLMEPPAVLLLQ
Variant	normalised enrichment score
PSARRQLFVTVVK [V3A]	0.676
PSVRRQAFVTVVK [L7A]	0.555
PSVRRQLFATVVK [V9A]	0.264
PSVRAQLFVTVVK [R5A]	0.682
PSVRRQLLVTVVK [F8L]	0.238
PSVRRQLFVTAVK [V11A]	0.727
PSVRRQLFVTVAK [V12A]	0.537

Sample 3
Molecule: PhoQ, residues 284 288 289 292 302 303 ALASRC
Method: Sort-seq
Refers to: YFP reporter
Sample: E. coli
Notes: PhoQ-PhoP variant library
Added: 10 µM Mg2+
Relative to: high Mg2+ state
Direction: higher = stronger signaling
target	fold induction
PhoP, residues 12 14 15 18 19 TQCLL (Escherichia coli, UniProt P23836)	5.26
PhoP, residues 12 14 15 18 19 VHTVL (Escherichia coli, UniProt P23836)	7.48
PhoP, residues 12 14 15 18 19 ICWRQ (Escherichia coli, UniProt P23836)	8.41

Sample 4
Target: Interferon regulatory factor 7, full length, phosphomimetic (IRF7, Homo sapiens, UniProt Q92985, residues 1-503, S471D/S472D/S475D/S476D/S477D/S483D/S484D/S487D)
Method: protein-binding microarray
Form: double-stranded DNA, one strand shown
Sample: in vitro
Concentration: 2200 nM top
Notes: 60-bp whole probe
Added: salmon DNA 0.4 mg/ml
Relative to: random background probes
Direction: higher = stronger binding
Shared flanks, not repeated: GCCTAGCAC … GTCTTGATTCGCTTGACGCTGCTG
Target sequence (chain): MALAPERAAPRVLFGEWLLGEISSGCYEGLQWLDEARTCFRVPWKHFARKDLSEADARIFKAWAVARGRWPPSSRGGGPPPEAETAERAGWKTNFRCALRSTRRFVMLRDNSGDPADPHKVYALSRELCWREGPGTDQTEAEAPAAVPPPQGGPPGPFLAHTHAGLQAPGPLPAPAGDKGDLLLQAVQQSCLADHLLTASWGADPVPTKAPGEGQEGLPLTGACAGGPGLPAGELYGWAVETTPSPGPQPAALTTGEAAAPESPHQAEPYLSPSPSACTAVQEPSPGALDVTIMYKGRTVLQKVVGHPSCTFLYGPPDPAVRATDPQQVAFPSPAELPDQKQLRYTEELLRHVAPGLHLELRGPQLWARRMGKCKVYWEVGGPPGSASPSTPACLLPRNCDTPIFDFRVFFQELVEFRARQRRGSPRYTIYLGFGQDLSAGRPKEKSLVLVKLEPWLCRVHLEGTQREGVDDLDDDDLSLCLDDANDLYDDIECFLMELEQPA
Sequence	fitted relative affinity
ATATATATTATATATACACATGTGCTA	0.509 z-score
GACGGACTGGTCTTTCGGGACGTGCTA	0.438 z-score
TTAGGGTTCGGTCTCGGTTAGTGCTAG	0.772 z-score
AATATTATAACACTCTTCTTGTGCTAG	0.746 z-score
TCACTTCTCCCTTTCAGTTTGTGCTAG	4.94 z-score
TTAGATTTCGGGTTTCGCTTAGTGCTA	5.95 z-score
TGTAGCTGGAGAAGTAAAACGTGCTAG	-0.757 z-score
TCAGGTATCCTACTGCTTTAGTGCTAG	1.16 z-score
TTAGGTTTCGACTTTCGGTTCGTGCTA	15.2 z-score
GACGTACTGCTACTGCTGACGTGCTAG	0.489 z-score
TTACGTATCGGTCTCGGTTAGTGCTAG	2.14 z-score
TTAGCTATCGGGTTTCGGTTAGTGCTA	3.84 z-score
TTATGTATCGGGTATCGGTTAGTGCTA	1.06 z-score
GACGGTATCCTTATGCTGACGTGCTAG	0.678 z-score

Some of these lines once more (sample 1):
Sequence	RBNS enrichment (R)
GUGUGGUUCAUGCAUUGUCUUUGAUAUCCUAGACGGAGCUCAGCUUAGAACUUUCCAAGCGCCAGUGCACAGCGUUCUAGGGAAUGGUGCUCCUUGGCUGGGUGAGCUGC	0.568
CCUUCUGAGCUGUGGAGAUCACACCAUCCUGUCGCCCUGCAAAUAAUUGUGGAUCAUUUACCUUGAGGCUGCAGAGUGGGUUCCAGGACUCUUACUUCACUGUGGAGGGA	0.219
UCAAAGGACUGUUACUUUAUUAUUGUAUUCAACACUCAUUGUGUGUAUUACCACAAAUACUACCGACUCCAUACCAACACUUUUUUUUUUCUGGCAACAUUUAAUGAUCC	0.576
